Assay results from different studies.
A part holds a random share of what one study measured.
Chain of UniProt O75676 (whole entry, looked up): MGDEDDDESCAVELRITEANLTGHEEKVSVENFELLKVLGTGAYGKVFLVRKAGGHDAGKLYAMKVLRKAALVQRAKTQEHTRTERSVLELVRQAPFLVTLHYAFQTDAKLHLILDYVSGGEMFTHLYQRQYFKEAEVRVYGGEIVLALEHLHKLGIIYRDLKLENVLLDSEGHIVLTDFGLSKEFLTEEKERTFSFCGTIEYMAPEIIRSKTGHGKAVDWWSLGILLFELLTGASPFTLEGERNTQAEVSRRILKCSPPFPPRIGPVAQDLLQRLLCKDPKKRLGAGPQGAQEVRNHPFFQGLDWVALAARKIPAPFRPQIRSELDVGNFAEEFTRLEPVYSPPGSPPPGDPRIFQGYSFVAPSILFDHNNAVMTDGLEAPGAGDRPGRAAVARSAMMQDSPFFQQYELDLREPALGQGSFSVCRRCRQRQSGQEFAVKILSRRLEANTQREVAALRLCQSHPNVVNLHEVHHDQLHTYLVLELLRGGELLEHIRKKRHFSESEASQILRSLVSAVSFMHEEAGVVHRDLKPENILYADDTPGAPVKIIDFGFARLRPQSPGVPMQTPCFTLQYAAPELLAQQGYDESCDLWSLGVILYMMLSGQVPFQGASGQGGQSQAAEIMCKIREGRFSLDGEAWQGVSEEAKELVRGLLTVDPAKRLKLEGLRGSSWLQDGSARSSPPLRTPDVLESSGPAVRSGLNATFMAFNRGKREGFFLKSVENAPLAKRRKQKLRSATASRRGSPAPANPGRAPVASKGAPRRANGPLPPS
Chain of UniProt Q16539 (whole entry, looked up): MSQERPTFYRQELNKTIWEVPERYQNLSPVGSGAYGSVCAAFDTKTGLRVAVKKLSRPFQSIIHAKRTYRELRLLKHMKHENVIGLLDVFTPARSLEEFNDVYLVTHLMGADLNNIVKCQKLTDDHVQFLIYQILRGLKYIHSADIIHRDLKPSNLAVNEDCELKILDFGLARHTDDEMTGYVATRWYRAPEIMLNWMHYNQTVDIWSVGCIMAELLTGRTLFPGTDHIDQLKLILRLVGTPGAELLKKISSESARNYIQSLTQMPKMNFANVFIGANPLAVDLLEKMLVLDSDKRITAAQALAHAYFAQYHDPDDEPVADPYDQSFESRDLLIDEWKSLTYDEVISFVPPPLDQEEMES
Chain of UniProt Q9Y5S2 (whole entry, looked up): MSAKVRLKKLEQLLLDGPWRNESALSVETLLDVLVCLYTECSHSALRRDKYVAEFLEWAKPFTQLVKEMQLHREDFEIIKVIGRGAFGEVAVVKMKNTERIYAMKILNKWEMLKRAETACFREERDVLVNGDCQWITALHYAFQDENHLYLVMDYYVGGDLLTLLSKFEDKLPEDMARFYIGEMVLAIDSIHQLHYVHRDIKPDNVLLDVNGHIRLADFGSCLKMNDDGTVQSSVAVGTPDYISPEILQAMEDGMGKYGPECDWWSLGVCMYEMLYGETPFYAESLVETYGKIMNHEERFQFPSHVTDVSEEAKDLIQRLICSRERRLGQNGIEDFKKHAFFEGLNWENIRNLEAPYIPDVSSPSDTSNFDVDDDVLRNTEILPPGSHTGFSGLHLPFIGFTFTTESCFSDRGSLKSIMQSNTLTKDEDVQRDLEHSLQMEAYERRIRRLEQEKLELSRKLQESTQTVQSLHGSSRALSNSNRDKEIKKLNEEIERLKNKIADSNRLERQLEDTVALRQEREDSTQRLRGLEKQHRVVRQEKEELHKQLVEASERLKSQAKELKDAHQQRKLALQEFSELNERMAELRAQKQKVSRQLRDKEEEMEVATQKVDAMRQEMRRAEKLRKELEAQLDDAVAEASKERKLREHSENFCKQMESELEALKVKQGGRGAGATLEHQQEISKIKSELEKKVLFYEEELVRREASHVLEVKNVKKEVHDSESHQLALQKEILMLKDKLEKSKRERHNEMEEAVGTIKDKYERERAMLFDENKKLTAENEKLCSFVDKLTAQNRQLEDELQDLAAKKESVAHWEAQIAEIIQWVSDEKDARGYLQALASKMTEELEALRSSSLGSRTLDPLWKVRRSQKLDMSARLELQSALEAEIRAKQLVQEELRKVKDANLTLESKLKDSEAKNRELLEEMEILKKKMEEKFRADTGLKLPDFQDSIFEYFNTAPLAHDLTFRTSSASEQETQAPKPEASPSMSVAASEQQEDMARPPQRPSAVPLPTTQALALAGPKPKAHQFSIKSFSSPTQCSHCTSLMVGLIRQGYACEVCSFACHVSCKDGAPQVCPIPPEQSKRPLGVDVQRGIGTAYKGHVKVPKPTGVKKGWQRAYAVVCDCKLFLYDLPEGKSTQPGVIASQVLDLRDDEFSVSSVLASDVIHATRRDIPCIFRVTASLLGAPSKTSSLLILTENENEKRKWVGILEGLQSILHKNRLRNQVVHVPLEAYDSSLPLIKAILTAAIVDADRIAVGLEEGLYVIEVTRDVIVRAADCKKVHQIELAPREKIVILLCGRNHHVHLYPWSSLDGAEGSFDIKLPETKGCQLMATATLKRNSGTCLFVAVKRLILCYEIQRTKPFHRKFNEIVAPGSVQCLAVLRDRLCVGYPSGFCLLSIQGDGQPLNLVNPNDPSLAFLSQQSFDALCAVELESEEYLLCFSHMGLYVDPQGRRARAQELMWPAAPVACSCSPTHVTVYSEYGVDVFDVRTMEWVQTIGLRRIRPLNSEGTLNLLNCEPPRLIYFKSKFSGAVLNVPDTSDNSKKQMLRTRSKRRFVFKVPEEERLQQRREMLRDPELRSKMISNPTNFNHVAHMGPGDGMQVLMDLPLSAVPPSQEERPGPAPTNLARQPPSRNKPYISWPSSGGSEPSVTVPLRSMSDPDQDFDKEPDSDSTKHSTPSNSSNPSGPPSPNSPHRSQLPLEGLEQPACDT
Chain of UniProt Q9H4B4 (whole entry, looked up): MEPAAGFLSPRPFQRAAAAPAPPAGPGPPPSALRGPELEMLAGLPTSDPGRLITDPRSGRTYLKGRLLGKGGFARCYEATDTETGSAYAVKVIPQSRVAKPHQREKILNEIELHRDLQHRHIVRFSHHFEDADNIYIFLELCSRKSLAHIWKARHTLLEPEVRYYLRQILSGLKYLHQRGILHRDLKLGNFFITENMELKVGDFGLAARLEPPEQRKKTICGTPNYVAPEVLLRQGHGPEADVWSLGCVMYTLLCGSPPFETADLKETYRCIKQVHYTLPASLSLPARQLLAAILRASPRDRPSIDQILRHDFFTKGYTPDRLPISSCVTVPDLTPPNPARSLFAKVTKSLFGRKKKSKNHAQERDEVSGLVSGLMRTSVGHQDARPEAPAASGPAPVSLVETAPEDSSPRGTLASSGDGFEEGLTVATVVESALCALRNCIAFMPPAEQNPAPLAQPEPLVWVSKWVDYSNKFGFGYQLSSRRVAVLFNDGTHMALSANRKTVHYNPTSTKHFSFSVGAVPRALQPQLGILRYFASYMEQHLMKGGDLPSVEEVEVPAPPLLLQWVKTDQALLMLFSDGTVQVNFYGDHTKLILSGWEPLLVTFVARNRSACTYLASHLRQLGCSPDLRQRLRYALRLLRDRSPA
Chain of UniProt P28482 (whole entry, looked up): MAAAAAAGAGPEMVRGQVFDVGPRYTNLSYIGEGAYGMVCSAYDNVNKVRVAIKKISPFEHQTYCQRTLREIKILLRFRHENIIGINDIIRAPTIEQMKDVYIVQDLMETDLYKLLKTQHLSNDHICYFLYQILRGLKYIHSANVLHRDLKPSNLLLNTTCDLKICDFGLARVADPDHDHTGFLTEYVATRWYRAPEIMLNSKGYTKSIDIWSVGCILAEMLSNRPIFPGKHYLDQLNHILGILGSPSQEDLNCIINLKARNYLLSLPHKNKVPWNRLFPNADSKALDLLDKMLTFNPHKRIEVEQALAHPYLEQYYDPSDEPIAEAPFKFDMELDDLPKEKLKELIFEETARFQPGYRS
Chain of UniProt Q96L34 (whole entry, looked up): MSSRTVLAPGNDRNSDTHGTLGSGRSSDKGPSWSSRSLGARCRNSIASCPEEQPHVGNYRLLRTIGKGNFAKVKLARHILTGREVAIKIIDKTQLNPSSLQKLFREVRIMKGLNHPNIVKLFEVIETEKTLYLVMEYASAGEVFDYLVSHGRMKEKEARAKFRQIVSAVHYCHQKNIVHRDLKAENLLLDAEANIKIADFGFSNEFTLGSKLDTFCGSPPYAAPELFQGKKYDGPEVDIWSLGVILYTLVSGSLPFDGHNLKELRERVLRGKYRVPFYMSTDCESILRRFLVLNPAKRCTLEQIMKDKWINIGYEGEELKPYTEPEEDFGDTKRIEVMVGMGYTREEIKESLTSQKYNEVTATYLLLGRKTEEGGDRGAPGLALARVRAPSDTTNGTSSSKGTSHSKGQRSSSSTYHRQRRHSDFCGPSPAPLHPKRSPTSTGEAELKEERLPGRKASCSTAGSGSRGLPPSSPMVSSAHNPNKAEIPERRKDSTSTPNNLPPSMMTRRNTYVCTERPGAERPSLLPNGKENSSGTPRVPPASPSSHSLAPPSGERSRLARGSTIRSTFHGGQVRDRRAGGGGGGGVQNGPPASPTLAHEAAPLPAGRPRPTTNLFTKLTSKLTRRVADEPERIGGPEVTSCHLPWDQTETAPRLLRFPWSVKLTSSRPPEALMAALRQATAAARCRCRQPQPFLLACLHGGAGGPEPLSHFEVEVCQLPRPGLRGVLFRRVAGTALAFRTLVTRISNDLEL
Chain of UniProt P45985 (whole entry, looked up): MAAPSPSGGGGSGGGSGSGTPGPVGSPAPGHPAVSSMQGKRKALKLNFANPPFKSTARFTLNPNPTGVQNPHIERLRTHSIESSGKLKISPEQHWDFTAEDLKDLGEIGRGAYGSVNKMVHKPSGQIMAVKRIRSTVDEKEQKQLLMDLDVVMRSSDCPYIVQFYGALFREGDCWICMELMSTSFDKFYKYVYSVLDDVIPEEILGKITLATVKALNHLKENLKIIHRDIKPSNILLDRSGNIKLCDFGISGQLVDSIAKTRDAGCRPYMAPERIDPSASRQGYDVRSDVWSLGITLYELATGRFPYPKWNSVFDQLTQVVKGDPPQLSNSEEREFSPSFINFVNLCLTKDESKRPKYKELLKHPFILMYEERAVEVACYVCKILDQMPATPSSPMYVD

Sample 1
Compound: C[C@@H]1CCN(C(=O)CC#N)C[C@@H]1N(C)c1ncnc2[nH]ccc12
Observed: enzyme activity
Mode: inhibitor
Concentration: 0.5 µM
Relative to: control
It gave 105% for remaining activity (RPS6KA4 (Homo sapiens, UniProt O75676)).
MINK1 (Homo sapiens, UniProt Q8N4C8) — remaining activity: 100%.
It gave 88.6% for remaining activity (MAPK1 (Homo sapiens, UniProt P28482)).
The remaining activity was 95.4% (CDC42BPB (Homo sapiens, UniProt Q9Y5S2)).
It gave 94.4% for remaining activity (TLK2 (Homo sapiens, UniProt Q86UE8)).
MAPK14 (Homo sapiens, UniProt Q16539) — remaining activity: 93.4%.
It gave 86.7% for remaining activity (MET (Homo sapiens, UniProt P08581)).
It gave 81.7% for remaining activity (MARK4 (Homo sapiens, UniProt Q96L34)).
The remaining activity was 89.3% (Myosin-IIIb (MYO3B, Homo sapiens, UniProt Q8WXR4)).
It gave 98.4% for remaining activity (TXK (Homo sapiens, UniProt P42681)).
NEK3 (Homo sapiens, UniProt P51956) — remaining activity: 94.5%.
It gave 99.1% for remaining activity (PLK3 (Homo sapiens, UniProt Q9H4B4)).
For PNCK (Homo sapiens, UniProt Q6P2M8): remaining activity read 104%.

Sample 2
Cell line: HaCaT
Concentration: 100 µM
Time: 18 h
With `Nc1ncnc2c1ncn2[C@@H]1O[C@H](CO)[C@@H](O)[C@@H]1O` the viability was 93.6%.
`CC(C)OC(=O)C(C(=O)OC(C)C)=C1SC=CS1` has a viability of 32.5%.
For `CC1(C)NC(=O)N(c2ccc([N+](=O)[O-])c(C(F)(F)F)c2)C1=O`, the viability was 93.9%.
For `COc1ccc2c(c1)c(CC(=O)OCC(=O)O)c(C)n2C(=O)c1ccc(Cl)cc1`, the viability was 97.3%.
The viability of `CCOC(=O)C1=C(COCCN)NC(C)=C(C(=O)OC)C1c1ccccc1Cl` (stereo not shown) is reported as 18.1%.
`Nc1ncn([C@@H]2O[C@H](CO)[C@@H](O)[C@H]2O)c(=O)n1` has a viability of 54.7%.
`COc1cc(C(C)=O)ccc1OCCCN1CCC(c2noc3cc(F)ccc23)CC1` gave a viability of 66.1%.
The viability of `CC[C@]1(O)C[C@@H]2CN(CCc3c([nH]c4ccccc34)[C@@](C(=O)OC)(c3cc4c(cc3OC)N(C)[C@H]3[C@@](O)(C(=O)OC)[C@H](OC(C)=O)[C@]5(CC)C=CCN6CC[C@]43[C@@H]65)C2)C1` is reported as 58.8%.
For `CC(=O)N[C@H]1[C@H]([C@H](O)[C@H](O)CO)OC(C(=O)O)=C[C@@H]1N=C(N)N`, the viability was 115%.
The viability of `COc1ccc(CN(CCN(C)C)c2ccccn2)cc1` is reported as 100%.

Sample 3
Organism: Plasmodium berghei
Mode: inhibitor
Cells: Huh-7
Strain: liver stage
Concentration: 10 µM
Time: 24 h
Relative to: untreated control
With `CC(=O)[C@@]1(O)CC[C@H]2[C@@H]3C[C@H](C)C4=CC(=O)C=C[C@]4(C)[C@@]3(F)[C@@H](O)C[C@@]21C` the infection rate was 107%.
For `C[C@](N)(Cc1ccc(O)cc1)C(=O)O`, the infection rate was 96.1%.
`CC(=O)OCC(=O)[C@@]1(O)CC[C@H]2[C@@H]3CCC4=CC(=O)CC[C@]4(C)[C@H]3[C@@H](O)C[C@@]21C` has an infection rate of 96%.
For `C[C@H]1COc2c(N3CCN(C)CC3)c(F)cc3c(=O)c(C(=O)O)cn1c23`, the infection rate was 55.9%.
`OC[C@H]1O[C@@H](O[C@@H]2[C@@H](CO)OC(O)(CO)[C@H]2O)[C@H](O)[C@@H](O)[C@H]1O` (mixture of isomers) has an infection rate of 105%.

Sample 4
Compound: CN(C)C(=O)Cn1cc(-c2nc([C@@](C)(c3ccc(-c4cnc(N)nc4)cc3)C3CC3)no2)cn1
Observed: cell-free assay
Method: competition with immobilised ligand
Concentration: 1 µM
It gave 96% for remaining binding (CDK17 (Homo sapiens, UniProt Q00537)).
MAP2K4 (Homo sapiens, UniProt P45985) — remaining binding: 100%.
For Ribosomal protein S6 kinase alpha-4, N-terminal kinase domain (RPS6KA4, Homo sapiens, UniProt O75676): remaining binding read 100%.
For EGFR (Homo sapiens, UniProt P00533, del746-750): remaining binding read 100%.
It gave 88% for remaining binding (MKNK2 (Homo sapiens, UniProt Q9HBH9)).
The remaining binding was 89% (ACVR1B (Homo sapiens, UniProt P36896)).
The remaining binding was 100% (MAP4K2 (Homo sapiens, UniProt Q12851)).
For FLT3 (Homo sapiens, UniProt P36888, D835V/ITD): remaining binding read 62%.
MAP3K6 (Homo sapiens, UniProt O95382) — remaining binding: 90%.

Repeated from above (sample 1):
NEK3 (Homo sapiens, UniProt P51956) — remaining activity: 94.5%.
It gave 105% for remaining activity (RPS6KA4 (Homo sapiens, UniProt O75676)).
It gave 81.7% for remaining activity (MARK4 (Homo sapiens, UniProt Q96L34)).
The remaining activity was 95.4% (CDC42BPB (Homo sapiens, UniProt Q9Y5S2)).
For PNCK (Homo sapiens, UniProt Q6P2M8): remaining activity read 104%.
It gave 88.6% for remaining activity (MAPK1 (Homo sapiens, UniProt P28482)).
